Experimental data gathered from unrelated publications.
Each line is one published result; not all experiments were run side by side. Numbers after ± are the reported error.
Cell line: HCT-116

| Structure (SMILES) | assay | setting | IC50 |
| --- | --- | --- | --- |
| CCOC(=O)/C=C1\S/C(=N\N=C\c2cccc3cc4ccccc4nc23)N(c2ccc(OC)cc2)C1=O | cell growth or viability, MTT | 48 h | 37.2 µM |
| Cc1nc(N(C)c2ccc3c(c2)/C(=C/c2cn(C)c4ccccc24)C(=O)N3C)c2ccccc2n1 | cell growth or viability, MTT | – | 4.88 µM |
| Cc1ccc([N+](=O)[O-])cc1S(=O)(=O)N(C)/N=C/c1cnc2ccc(Br)cn12 | cell viability, MTS | – | 0.001 µM |
| O=C1/C(=N\c2ccc(Cl)cc2Br)c2ccccc2N1C(=O)c1ccccc1Br | cell growth or viability, MTT | 48 h | 1.3 µM |
| CN1CCC(N[C@H]2CCc3[nH]c4c(C(N)=O)ccc(-c5ccccc5Cl)c4c3C2)CC1 | cell growth or viability | – | 0.761 µM |
| O=C1Nc2ccccc2/C1=N/c1ccc(Cl)cc1Br | cell growth or viability, MTT | 48 h | 12.6 µM |
| COc1ccccc1/C=C1\C(=O)N(C)c2ccc(Nc3nc(C)nc4ccccc34)cc21 | cell growth or viability, MTT | – | 12.8 µM |
| O=C(/C=C/Sc1ccc(C(F)(F)F)cn1)c1ccccc1 | cell growth or viability, ATP luminescence | 48 h | 4.1 µM |
| CSc1sc2c3ccccc3c3ccccc3[n+]2c1C(=O)c1ccccc1 | cell growth or viability, MTT | 72 h | 27.4 µM |
| CCC(=[NH+][Pt-2]1([Cl])([O]C(=O)CC(C)C)([O]C(=O)CC(C)C)[NH]CCC[NH]1)N(C)CCNc1c2ccccc2[nH+]c2ccccc12.O=[N+]([O-])O.O=[N+]([O-])O | cell growth or viability, MTS | 72 h | 4.01 µM |
| NC(=O)c1ccc(-c2ccccc2Cl)c2c3c([nH]c12)CC[C@H](N)C3 | cell growth or viability | – | 0.00644 µM |
| CCCCCCCC/C=C/CCCCCCCC(=O)[O][Pt-2]1([OH])([Cl])([NH+]=C(CC)N(C)CCNc2c3ccccc3[nH+]c3ccccc23)[NH]CCC[NH]1.O=[N+]([O-])O.O=[N+]([O-])O | cell growth or viability, MTS | 72 h | 0.14 µM |
| C=CC(=O)N1CCc2ccc(-n3c(=O)ccc4cnc5ccc(-c6cnn(C)c6)cc5c43)cc21 | cell growth or viability | – | 3.24 µM |
| CN(C)c1ccc(CCC(=O)N2C(=O)C3(NC(c4ccc(F)cc4)C4(C(=O)Nc5ccccc54)N3Cc3ccc(F)cc3)c3ccccc32)cc1 (stereo not shown) | cell growth or viability, MTT | 48 h | 30.7 µM |
| O=C1CS/C(=N\N=C\c2cccc3cc4ccccc4nc23)N1c1ccc([N+](=O)[O-])cc1 | cell growth or viability, MTT | 48 h | > 50 µM |
| CC(=O)OC[C@H]1O[C@@H](Oc2ccc(C#[C][Pt+])cc2)[C@H](OC(C)=O)[C@@H](OC(C)=O)[C@@H]1OC(C)=O.O=S(=O)([O-])C(F)(F)F.c1ccc(-c2cccc(-c3ccccn3)n2)nc1 | cell growth or viability | 24 h | > 100 µM |
| O=C1CS/C(=N\N=C\c2cccc3cc4ccccc4nc23)N1c1ccc(F)cc1 | cell growth or viability, MTT | 48 h | 30.4 µM |
| O=C1C(Nc2ccc(Cl)cc2)c2ccccc2N1Cc1ccccc1 (stereo not shown) | cell growth or viability, MTT | 48 h | 26.6 µM |
| CCC(=[NH+][Pt-2]1([OH])([OH])([Cl])[NH]CCC[NH]1)N(C)CCNc1c2ccccc2[nH+]c2ccccc12.O=[N+]([O-])O.O=[N+]([O-])O | cell growth or viability, MTS | 72 h | 6.44 µM |
| CN1C(=O)CS/C1=N\N=C\c1cccc2cc3ccccc3nc12 | cell growth or viability, MTT | 48 h | 32 µM |
| Oc1c(Cl)cc(Cl)cc1/C=N/Nc1ncnc2sc3c(c12)CCCC3 | cell viability | 48 h | 0.577 µM |
| O=C1CS/C(=N\N=C\c2cccc3cc4ccccc4nc23)N1c1ccccc1 | cell growth or viability, MTT | 48 h | 39.2 µM |

| Structure (SMILES) | assay | setting | IC50 |
| --- | --- | --- | --- |
| COc1cc(-n2cc3cc(F)cc(C(N)=O)c3n2)cc(Cl)c1C1CC(O)(CCO)Cc2ccccc21 (stereo not shown) | cell growth or viability, MTT | 72 h | 0.07 µM |
| CNS(=O)(=O)Nc1nccc(Cc2c(C)c3ccc(Oc4ncccc4F)cc3oc2=O)c1F | cell viability | 7 days | 0.0775 µM |
| [BH3-][P+]1(c2ccccc2)CCCCC1 | cell growth or viability, MTT | 72 h | 49 µM |
| CCOC(=O)c1cc(C)[nH]n1 | cell growth or viability, MTT | 24 h | 110 µM |
| CCCN1C(=O)CS/C1=N\N=C\c1cccc2cc3ccccc3nc12 | cell growth or viability, MTT | 48 h | 38.1 µM |
| [BH3-][P@+]1(c2ccccc2)CC[C@H](O)CC1 | cell growth or viability, MTT | 72 h | > 100 µM |
| O=C(CCc1ccccc1)N1C(=O)C2(NC(c3ccc(F)cc3)C3(C(=O)Nc4ccccc43)N2Cc2ccc(F)cc2)c2ccccc21 (stereo not shown) | cell growth or viability, MTT | 48 h | 38.8 µM |
| CCCN1C(=O)/C(=C/C(=O)OCC)S/C1=N\N=C\c1cccc2cc3ccccc3nc12 | cell growth or viability, MTT | 48 h | 43.1 µM |
| O=C1Nc2ccccc2C12NC(c1ccc(Cl)c(Cl)c1)C1(C(=O)Nc3ccccc31)N2Cc1ccc(Cl)c(Cl)c1 (stereo not shown) | cell growth or viability, MTT | 48 h | 48.7 µM |
| Cc1nc(N(C)c2ccc3c(c2)/C(=C/c2ccccc2C)C(=O)N3C)c2ccccc2n1 | cell growth or viability, MTT | – | 0.27 µM |
| CCNC(=S)NN=Cc1c2ccccc2cc2ccccc12.Cc1ccc(C(C)C)cc1.[Cl-].[Cl-].[Ru+2] | cytotoxicity, MTS | 48 h | 248 ± 8 µM |
| O=C1/C(=N\c2ccccc2Br)c2ccccc2N1Cc1ccc([N+](=O)[O-])cc1 | cell growth or viability, MTT | 48 h | 7.82 µM |
| O=C1CCP(=O)(c2ccccc2)CC1 | cell growth or viability, MTT | 72 h | > 100 µM |
| O=C1/C(=N\c2ccc(Cl)cc2)c2ccccc2N1Cc1ccccc1 | cell growth or viability, MTT | 48 h | 2.16 µM |
| O=C(NCc1cc(F)cc(F)c1)[C@@]1(O)CCN(c2ccc3[nH]ccc3c2)C1=O | cell growth or viability | – | > 30 µM |
| O=[P@]1(c2ccccc2)CC[C@@H](O)CC1 | cell growth or viability, MTT | 72 h | > 100 µM |
| CCOC(=O)c1cc(C)n(CO)n1 | cell growth, MTT | 24 h | > 800 µM |
| Cc1nc(N(C)c2ccc3c(c2)/C(=C/c2ccccc2)C(=O)N3C)c2ccccc2n1 | cell growth or viability, MTT | – | 5.39 µM |
| CCOC(=O)/C=C1\S/C(=N\N=C\c2cccc3cc4ccccc4nc23)N(C)C1=O | cell growth or viability, MTT | 48 h | 46.6 µM |
| COc1ccccc1/C=C1\C(=O)Nc2ccc(Nc3nc(C)nc4ccccc34)cc21 | cell growth or viability, MTT | – | 2.77 µM |
| C/C(=N\Nc1ncnc2sc3c(c12)CCCC3)c1cc(O)ccc1O | cell growth or viability, CCK-8 | 48 h | 1.28 µM |

Excerpt of the above:
| Structure (SMILES) | assay | setting | IC50 |
| --- | --- | --- | --- |
| CCCCCCCC/C=C/CCCCCCCC(=O)[O][Pt-2]1([OH])([Cl])([NH+]=C(CC)N(C)CCNc2c3ccccc3[nH+]c3ccccc23)[NH]CCC[NH]1.O=[N+]([O-])O.O=[N+]([O-])O | cell growth or viability, MTS | 72 h | 0.14 µM |
| C=CC(=O)N1CCc2ccc(-n3c(=O)ccc4cnc5ccc(-c6cnn(C)c6)cc5c43)cc21 | cell growth or viability | – | 3.24 µM |
| CN(C)c1ccc(CCC(=O)N2C(=O)C3(NC(c4ccc(F)cc4)C4(C(=O)Nc5ccccc54)N3Cc3ccc(F)cc3)c3ccccc32)cc1 (stereo not shown) | cell growth or viability, MTT | 48 h | 30.7 µM |
| O=C1CS/C(=N\N=C\c2cccc3cc4ccccc4nc23)N1c1ccc([N+](=O)[O-])cc1 | cell growth or viability, MTT | 48 h | > 50 µM |
| CC(=O)OC[C@H]1O[C@@H](Oc2ccc(C#[C][Pt+])cc2)[C@H](OC(C)=O)[C@@H](OC(C)=O)[C@@H]1OC(C)=O.O=S(=O)([O-])C(F)(F)F.c1ccc(-c2cccc(-c3ccccn3)n2)nc1 | cell growth or viability | 24 h | > 100 µM |
